Measurements of several laboratories.
Each line is one published result; not all experiments were run side by side. ± gives the spread as reported.
GBA2: Beta-glucosidase (GBA2, Homo sapiens, UniProt Q9HCG7)
Chain of UniProt Q9HCG7 (whole entry, looked up): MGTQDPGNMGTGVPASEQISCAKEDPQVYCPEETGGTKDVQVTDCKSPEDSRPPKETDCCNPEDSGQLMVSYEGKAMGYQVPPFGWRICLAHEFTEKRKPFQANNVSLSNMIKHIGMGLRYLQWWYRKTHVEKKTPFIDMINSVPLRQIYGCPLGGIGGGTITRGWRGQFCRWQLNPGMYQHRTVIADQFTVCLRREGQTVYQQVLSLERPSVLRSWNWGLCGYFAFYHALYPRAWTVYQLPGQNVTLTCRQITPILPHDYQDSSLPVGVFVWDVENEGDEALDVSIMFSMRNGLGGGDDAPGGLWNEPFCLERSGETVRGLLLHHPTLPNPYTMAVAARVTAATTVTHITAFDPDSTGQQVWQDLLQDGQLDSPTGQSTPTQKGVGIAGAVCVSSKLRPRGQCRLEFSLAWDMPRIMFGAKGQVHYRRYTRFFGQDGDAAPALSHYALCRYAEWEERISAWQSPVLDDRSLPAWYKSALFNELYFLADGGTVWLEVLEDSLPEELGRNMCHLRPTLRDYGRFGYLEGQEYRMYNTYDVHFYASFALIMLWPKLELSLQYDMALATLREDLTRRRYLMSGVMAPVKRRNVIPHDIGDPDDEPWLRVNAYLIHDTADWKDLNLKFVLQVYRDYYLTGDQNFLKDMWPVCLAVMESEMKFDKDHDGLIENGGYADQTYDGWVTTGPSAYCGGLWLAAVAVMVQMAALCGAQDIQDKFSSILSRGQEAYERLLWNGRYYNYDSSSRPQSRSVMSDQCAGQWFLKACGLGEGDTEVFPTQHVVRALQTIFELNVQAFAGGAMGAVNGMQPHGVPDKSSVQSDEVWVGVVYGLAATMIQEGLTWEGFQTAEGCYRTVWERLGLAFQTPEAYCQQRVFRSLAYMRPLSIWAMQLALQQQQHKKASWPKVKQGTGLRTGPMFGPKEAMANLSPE

SMILES	tested on	test	system	conditions	scale	quantity	result
O=C(NCc1cc(F)cc(F)c1)[C@@]1(O)CCN(c2ccc3[nH]ccc3c2)C1=O	CXF1103	colony formation	–	–	–	IC50	> 10000 nM
OC[C@H]1[C@@H](O)[C@H](O)[C@@H](O)CN1CCCCCOCc1ccc(-c2ccccc2)c(C(F)(F)F)c1	GBA2	inhibitor, 4MU-β-D-glucopyranoside	HEK293T homogenates overexpressing GBA2	–	reference: GCS IC50 over GBA2 IC50	selectivity ratio	30
COc1ccc2c(c1)Cc1c-2nc(N)c(C#N)c1-c1ccc(CO)o1	HH	cell growth or viability, ATP luminescence	–	–	–	IC50	6100 nM
CNS(=O)(=O)Nc1nccc(Cc2c(C)c3ccc(Oc4ncccc4F)cc3oc2=O)c1F	HH	cell viability	–	7 days	–	IC50	> 1000 nM
CCOc1cncc(-c2ccc(NC(=O)C3(c4ccnc(NS(=O)(=O)C5CC5)n4)CCOCC3)nc2)n1	WSUDLCL2	cell growth or viability, ATP luminescence	–	72 h	–	IC50	1560 nM
Cc1ccc(N2C(=O)CCSC23C(=O)N(Cc2ccc(F)cc2)c2ccccc23)cc1C (centres unmarked)	HEK293-A GFP-LC3B	LC3B puncta formation	–	22 h, added: chloroquine, torin1	–	IC50	11200 nM
COc1cc(-n2cc3cc(F)cc(C(N)=O)c3n2)cc(Cl)c1C1CC(O)(CCO)CC2CCCC21 (centres unmarked)	SNU1	cell growth or viability, MTT	–	72 h	–	IC50	230 nM
Cc1ccc([N+](=O)[O-])cc1S(=O)(=O)N(C)/N=C/c1cnc2ccc(Br)cn12	UO-31	MTS	–	NCI60 panel	–	IC50	115 nM
CCCN1C(=O)/C(=C/C(=O)OCC)S/C1=N\N=C\c1cccc2cc3ccccc3nc12	PATU	cell proliferation, MTT	–	48 h	–	IC50	> 50000 nM
CCCCn1cnc2ccc(-c3ccc(NC(=O)CC)nc3)cc2c1=O	HCC827	cell growth or viability, CCK-8	–	72 h	–	IC50	1210 nM
CC1(C)CC(=O)C(C2C3=C(CC(C)(C)CC3=O)Oc3ccc(Br)cc32)=C(O)C1 (centres unmarked)	3T3-L1 pre-adipocytes	cell viability, MTT	–	72 h	–	IC50	> 1000 µg/mL
C=CCOCO[C@H](C(=O)NC[C@@H]1C[C@@H](OC)C(C)(C)[C@@H](C[C@@H](COC)OC)O1)[C@@]1(OC)CC(=C)[C@@H](C)[C@@H](C)O1	Renca	cell viability, sulforhodamine B	–	72 h, 37 °C, added: H2O2 100 µM	–	IC50	2710 ± 313 nM
OC[C@@H]1[C@@H](O)[C@H](O)[C@@H](O)CN1CCCCCOCCc1ccsc1	GBA2	inhibitor, 4MU-β-D-glucopyranoside	HEK293T homogenates overexpressing GBA2	–	reference: GCS IC50 over GBA2 IC50	selectivity ratio	190
COC1CN([C@H]2CC[C@H]([C@@]3(C)Oc4c(Cl)cc(C(=O)NCc5c(SC)cc(C)[nH]c5=O)c(C)c4O3)CC2)C1	–	RNA-seq, measured: UBAP1	human, whole blood	dose not given, 24 h	reference: pretreatment baseline	log2 fold change	1.05
O=C(NC1(O)C(=O)c2ccccc2C1=O)c1ccc(-c2csnn2)cc1	HEK293-A GFP-LC3B	LC3B puncta formation	–	22 h, added: chloroquine, torin1	–	IC50	> 20000 nM
O=C1CS/C(=N\N=C\c2cccc3cc4ccccc4nc23)N1c1ccc([N+](=O)[O-])cc1	PATU	cell proliferation, MTT	–	48 h	–	IC50	> 50000 nM
CCN(C(=O)c1cc(F)ccc1Oc1nncnc1N1CCC2(C1)CN([C@H](CCCN(C)CCOC)C(C)C)C2)C(C)C	MV4-11 (KMT2A-AF4, FLT3-ITD)	mRNA level, QuantiGene multiplex, measured: PBX3	–	–	–	IC50	28 ± 3 nM
COc1cc(/C=C(\C#N)C(=O)c2ccsc2)cc(OC)c1OC	HEK293-A GFP-LC3B	LC3B puncta formation	–	22 h, added: chloroquine, torin1	–	IC50	> 20000 nM
CC(C)c1ccc(N(C)c2ccc3c(c2)OCC[C@H]3CNc2cnccc2C(=O)O)cc1	SAOS-2	cell growth or viability, ATP luminescence	–	7 days	–	IC50	≥ 10000 nM
N#Cc1c(N)nc2c(c1-c1ccc(CO)o1)Cc1cccc(O)c1-2	HH	cell viability, CellTiter-Glo	–	–	no inhibition at 100 µM	IC50	> 100000 nM
CN1CCC(N[C@H]2CCc3[nH]c4c(C(N)=O)ccc(-c5ccccc5Cl)c4c3C2)CC1	MCF7 (paclitaxel-resistant)	cell growth, inhibitor, CellTiter-Glo	–	96 h	–	IC50	1410 nM
COC(=O)C1=C(C)Oc2ccc(Br)cc2C1C(C(C)=O)C(=O)OC (centres unmarked)	3T3-L1 pre-adipocytes	cell viability, MTT	–	72 h	–	IC50	> 100 µg/mL
CCn1nc(Cl)c2c1-c1cnc(N)c(c1)O[C@H](C)c1cc(F)ccc1-c1nn(C)cc1C2	Ba/F3 EML4-ALK variant 1 L1196Q	cell viability	–	–	–	IC50	9.75 nM
CCOC(=O)/C=C1\S/C(=N\N=C\c2cccc3cc4ccccc4nc23)N(c2ccc([N+](=O)[O-])cc2)C1=O	PATU	cell proliferation, MTT	–	48 h	–	IC50	> 50000 nM
C=CC(=O)N1CCCC(n2c(=O)c3ncccc3n(Cc3ccc(Oc4ccccc4)cc3)c2=O)C1 (centres unmarked)	WSUDLCL2	cell growth or viability, MTT	–	72 h	–	IC50	100 nM
CC1(C)CC(=O)C(C2C3=C(CC(C)(C)CC3=O)Oc3ccccc32)=C(O)C1 (centres unmarked)	3T3-L1 pre-adipocytes	cell viability, MTT	–	72 h	–	IC50	42.8 ± 2.45 µg/mL
C=CC(=O)Nc1ccc(F)c(-c2ncnc3[nH]cc(C(=O)OCC)c23)c1	mouse CD4 T-cell blasts	measured: STAT1 phosphorylation	–	JAK1/JAK2 dependent, added: IFN-gamma	–	IC50	> 10000 nM
COc1ccc2nc(NC(=O)c3ccc(C(N)c4ccccc4)cc3)sc2c1 (centres unmarked)	NCI-H2122	cell growth or viability	–	–	–	IC50	30 nM
Cn1ncc(-c2ccc3c(=O)[nH]nc(CN)c3c2)c1-c1c(F)c(Cl)cc(OC2CC2)c1C#N	SW780	cell viability, inhibitor, CellTiter-Glo	–	120 h, baseline-subtracted	–	IC50	20 nM

Repeated from above:
SMILES	tested on	test	system	conditions	scale	quantity	result
O=C1CS/C(=N\N=C\c2cccc3cc4ccccc4nc23)N1c1ccc([N+](=O)[O-])cc1	PATU	cell proliferation, MTT	–	48 h	–	IC50	> 50000 nM
OC[C@@H]1[C@@H](O)[C@H](O)[C@@H](O)CN1CCCCCOCCc1ccsc1	GBA2	inhibitor, 4MU-β-D-glucopyranoside	HEK293T homogenates overexpressing GBA2	–	reference: GCS IC50 over GBA2 IC50	selectivity ratio	190
CC1(C)CC(=O)C(C2C3=C(CC(C)(C)CC3=O)Oc3ccc(Br)cc32)=C(O)C1 (centres unmarked)	3T3-L1 pre-adipocytes	cell viability, MTT	–	72 h	–	IC50	> 1000 µg/mL
N#Cc1c(N)nc2c(c1-c1ccc(CO)o1)Cc1cccc(O)c1-2	HH	cell viability, CellTiter-Glo	–	–	no inhibition at 100 µM	IC50	> 100000 nM
CCCCn1cnc2ccc(-c3ccc(NC(=O)CC)nc3)cc2c1=O	HCC827	cell growth or viability, CCK-8	–	72 h	–	IC50	1210 nM
